Assay results from different studies.
Lines come from different studies, so protocols differ. ± marks the error that the study gave.
UniProt P35372, sequence (whole entry, looked up): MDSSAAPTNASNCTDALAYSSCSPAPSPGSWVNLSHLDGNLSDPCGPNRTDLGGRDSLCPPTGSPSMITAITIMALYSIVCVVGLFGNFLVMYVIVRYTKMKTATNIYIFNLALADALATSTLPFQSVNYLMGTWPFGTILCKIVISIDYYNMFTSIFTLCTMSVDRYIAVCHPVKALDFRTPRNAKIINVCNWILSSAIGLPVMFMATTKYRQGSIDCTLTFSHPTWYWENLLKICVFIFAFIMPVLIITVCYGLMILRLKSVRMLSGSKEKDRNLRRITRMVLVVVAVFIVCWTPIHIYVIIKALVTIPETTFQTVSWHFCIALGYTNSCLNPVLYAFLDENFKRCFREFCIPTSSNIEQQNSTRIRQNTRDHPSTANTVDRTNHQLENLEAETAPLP
UniProt P41143, sequence (whole entry, looked up): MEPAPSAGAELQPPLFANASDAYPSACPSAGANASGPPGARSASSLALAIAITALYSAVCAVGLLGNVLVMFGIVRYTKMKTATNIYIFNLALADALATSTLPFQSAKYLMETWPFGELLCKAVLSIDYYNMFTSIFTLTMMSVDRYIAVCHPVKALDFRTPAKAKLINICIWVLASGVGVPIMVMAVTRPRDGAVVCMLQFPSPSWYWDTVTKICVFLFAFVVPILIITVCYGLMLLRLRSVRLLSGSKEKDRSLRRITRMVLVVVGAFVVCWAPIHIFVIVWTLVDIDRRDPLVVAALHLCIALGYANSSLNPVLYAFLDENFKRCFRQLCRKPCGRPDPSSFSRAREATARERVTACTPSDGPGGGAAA
UniProt Q0P543, sequence (whole entry, looked up): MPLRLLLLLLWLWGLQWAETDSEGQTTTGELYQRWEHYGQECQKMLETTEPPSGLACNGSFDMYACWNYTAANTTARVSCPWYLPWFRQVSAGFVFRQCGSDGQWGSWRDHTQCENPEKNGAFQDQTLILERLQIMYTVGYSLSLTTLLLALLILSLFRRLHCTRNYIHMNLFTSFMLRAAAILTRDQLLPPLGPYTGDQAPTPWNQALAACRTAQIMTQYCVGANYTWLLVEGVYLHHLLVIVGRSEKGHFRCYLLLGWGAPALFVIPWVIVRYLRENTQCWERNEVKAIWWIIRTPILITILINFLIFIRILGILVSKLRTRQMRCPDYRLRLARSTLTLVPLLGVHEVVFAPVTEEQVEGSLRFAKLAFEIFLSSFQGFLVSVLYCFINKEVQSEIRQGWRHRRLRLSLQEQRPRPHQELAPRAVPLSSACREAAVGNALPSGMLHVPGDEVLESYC
UniProt Q8NER1, sequence (whole entry, looked up): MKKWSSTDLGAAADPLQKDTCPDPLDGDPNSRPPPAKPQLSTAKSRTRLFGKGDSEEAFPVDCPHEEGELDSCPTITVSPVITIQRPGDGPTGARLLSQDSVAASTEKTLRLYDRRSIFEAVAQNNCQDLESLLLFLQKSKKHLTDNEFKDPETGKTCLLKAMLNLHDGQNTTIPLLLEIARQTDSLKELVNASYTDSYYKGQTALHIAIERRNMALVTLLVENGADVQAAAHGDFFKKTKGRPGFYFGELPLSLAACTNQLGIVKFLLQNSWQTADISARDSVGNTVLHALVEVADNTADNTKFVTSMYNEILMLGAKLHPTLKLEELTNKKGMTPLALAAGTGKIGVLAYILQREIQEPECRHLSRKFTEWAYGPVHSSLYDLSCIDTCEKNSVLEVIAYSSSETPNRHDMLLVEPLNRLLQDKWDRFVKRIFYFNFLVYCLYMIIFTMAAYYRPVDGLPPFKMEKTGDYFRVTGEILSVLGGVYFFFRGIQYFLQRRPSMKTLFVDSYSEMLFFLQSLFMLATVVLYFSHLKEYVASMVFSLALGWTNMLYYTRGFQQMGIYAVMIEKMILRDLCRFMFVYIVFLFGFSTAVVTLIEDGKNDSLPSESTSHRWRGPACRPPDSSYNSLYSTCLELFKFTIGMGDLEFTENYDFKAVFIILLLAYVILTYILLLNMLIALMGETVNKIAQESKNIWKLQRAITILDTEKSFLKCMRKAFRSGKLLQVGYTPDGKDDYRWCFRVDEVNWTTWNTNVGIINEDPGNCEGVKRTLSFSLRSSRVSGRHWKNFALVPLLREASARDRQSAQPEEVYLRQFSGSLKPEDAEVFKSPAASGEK
UniProt P43220, sequence (whole entry, looked up): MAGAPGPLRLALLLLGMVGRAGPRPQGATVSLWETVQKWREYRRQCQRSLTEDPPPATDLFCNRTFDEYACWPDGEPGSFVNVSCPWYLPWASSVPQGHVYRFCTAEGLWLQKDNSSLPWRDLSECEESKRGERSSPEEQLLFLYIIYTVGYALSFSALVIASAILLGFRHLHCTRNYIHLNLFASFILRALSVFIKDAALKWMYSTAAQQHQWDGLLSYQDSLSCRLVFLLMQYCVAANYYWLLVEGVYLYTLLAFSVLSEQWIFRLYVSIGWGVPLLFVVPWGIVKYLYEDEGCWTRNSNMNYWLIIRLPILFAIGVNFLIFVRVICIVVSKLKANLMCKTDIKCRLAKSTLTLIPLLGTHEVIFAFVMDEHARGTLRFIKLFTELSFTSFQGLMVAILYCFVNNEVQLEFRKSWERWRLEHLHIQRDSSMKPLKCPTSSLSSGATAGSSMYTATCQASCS
UniProt P34975, sequence (whole entry, looked up): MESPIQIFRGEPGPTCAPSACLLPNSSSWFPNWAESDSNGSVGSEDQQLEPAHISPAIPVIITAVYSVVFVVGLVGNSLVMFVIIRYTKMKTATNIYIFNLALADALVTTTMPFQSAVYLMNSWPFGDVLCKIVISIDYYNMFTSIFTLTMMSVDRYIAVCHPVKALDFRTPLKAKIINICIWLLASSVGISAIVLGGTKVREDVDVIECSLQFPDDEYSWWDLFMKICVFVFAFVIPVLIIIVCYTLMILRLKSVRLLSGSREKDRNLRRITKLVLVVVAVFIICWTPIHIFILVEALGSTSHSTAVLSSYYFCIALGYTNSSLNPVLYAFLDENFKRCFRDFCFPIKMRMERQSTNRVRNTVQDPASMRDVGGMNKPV

| SMILES | target | assay | test system | setting | scale | quantity | result |
| --- | --- | --- | --- | --- | --- | --- | --- |
| CC(C)C[C@H](NC(=O)[C@H](CCCCN)NC(=O)[C@H](CCCNC(=N)N)NC(=O)[C@H](C)NC(=O)[C@H](CO)NC(=O)[C@H](CCCCN)NC(=O)[C@H](CCCNC(=N)N)NC(=O)[C@H](C)NC(=O)CNC(=O)[C@@H](NC(=O)[C@H](Cc1ccccc1)NC(=O)CNC(=O)CNC(=O)[C@@H](N)Cc1ccccc1)[C@@H](C)O)C(=O)N[C@@H](C)C(=O)N[C@@H](CC(N)=O)C(=O)N[C@@H](CCC(N)=O)C(=O)O | Mu-type opioid receptor (OPRM1, Homo sapiens, UniProt P35372) | β-arrestin 2 recruitment, agonist, BRET | SH-SY5Y | 15 min, room temperature, inactive up to 1 µM |  | pEC50 | inactive |
| CC[C@H](C)[C@H](NC(=O)[C@H](CCCNC(=N)N)NC(=O)[C@H](CCCNC(=N)N)NC(=O)[C@H](CC(C)C)NC(=O)[C@H](Cc1ccccc1)NC(=O)CNC(=O)CNC(=O)[C@@H](N)Cc1ccc(O)cc1)C(=O)N[C@@H](CCCNC(=N)N)C(=O)N1CCC[C@H]1C(=O)N[C@@H](CCCCN)C(=O)N[C@@H](CC(C)C)C(=O)N[C@@H](CCCCN)C(N)=O | Kappa-type opioid receptor (Oprk1, Rattus norvegicus, UniProt P34975) | agonist |  | concentration not given |  | time to peak hyperpolarisation | ~30 s |
| CC[C@H](C)[C@H](NC(=O)[C@@H]1CCCN1C(=O)[C@H](CCC(=O)O)NC(=O)[C@H](CCC(N)=O)NC(=O)[C@H](CCCCN)NC(=O)[C@H](CCC(N)=O)NC(=O)[C@@H]1CCCN1C(=O)[C@@H]1CCCN1C(=O)[C@@H](NC(=O)[C@@H](NC(=O)[C@@H](NC(=O)[C@H](CCC(=O)O)NC(=O)[C@@H](NC(=O)CNC(=O)[C@H](CO)NC(=O)[C@H](CCCNC(=N)N)NC(=O)[C@H](Cc1ccccc1)NC(=O)[C@H](CO)NC(=O)[C@H](CCC(=O)O)NC(=O)[C@H](CCC(=O)O)NC(=O)[C@@H]1CCCN1C(=O)[C@@H]1CCCN1C(=O)[C@H](C)NC(=O)[C@@H](NC(=O)[C@@H]1CCCN1C(=O)[C@H](CCC(=O)O)NC(=O)[C@@H]1CCCN1C(=O)[C@H](CCCNC(=N)N)NC(=O)[C@@H](N)CO)[C@@H](C)O)C(C)C)[C@@H](C)O)[C@@H](C)O)[C@@H](C)O)C(=O)N[C@@H](CC(=O)O)C(=O)N[C@@H](CCCCN)C(=O)N[C@@H](CCC(=O)O)C(=O)N[C@@H](CC(C)C)C(=O)N[C@@H](Cc1ccc(O)cc1)C(=O)N1CCC[C@H]1C(=O)N[C@@H](CC(C)C)C(=O)N[C@H](C(=O)N[C@@H](CO)C(=O)N[C@@H](CC(C)C)C(=O)N[C@@H](CCCNC(=N)N)C(=O)N[C@@H](CO)C(=O)N[C@@H](CC(C)C)C(=O)N[C@@H](Cc1ccccc1)C(=O)NCC(=O)N[C@@H](CC(N)=O)C(=O)N[C@@H](CC(=O)O)C(=O)N1CCC[C@H]1C(=O)N[C@@H](CO)C(=O)N[C@@H](CO)C(=O)N[C@@H](CCC(N)=O)C(=O)O)[C@@H](C)O | Insulin-degrading enzyme (IDE, Homo sapiens, UniProt P14735, E111Q) | NMR relaxation dispersion |  | 500 µM, 2 °C |  | bound state population | ~3% |
| C[Si]1(C[C@H](CN)CC(=O)O)CCCC1 | Transient receptor potential cation channel subfamily V member 1 (TRPV1, Homo sapiens, UniProt Q8NER1) | ligand displacement, radioligand |  | 70 µM |  | inhibition | -5% |
| CC[C@H](C)[C@H](N)C(=O)N[C@@H](CC(N)=O)C(=O)N[C@@H](CC(N)=O)C(=O)N[C@H](C(=O)N1C[C@@H](n2cc([C]34[CH]5[CH]6[CH]7[CH]3[Fe]6754389%10[CH]4[CH]3[CH]8[CH]9[CH]4%10)nn2)C[C@H]1C(=O)N[C@@H](Cc1cn(C)c2ccccc12)C(N)=O)[C@@H](C)CC (stereo partly shown) | Envelope glycoprotein gp160, gp120 (env, Human immunodeficiency virus type 1 group M subtype B, UniProt P35961, S370A) | ITC |  | concentration not given, gp120 S375A mutant |  | binding enthalpy | -9.3 ± 0.8 kcal/mol |
| CCCCCCCCCCCCCCCC(=O)N[C@@H](CCC(=O)NCCCC[C@H](NC(=O)[C@H](CO)NC(=O)[C@@H]1CCCN1C(=O)[C@@H]1CCCN1C(=O)[C@@H]1CCCN1C(=O)[C@H](C)NC(=O)CNC(=O)[C@H](CO)NC(=O)[C@H](CO)NC(=O)[C@@H]1CCCN1C(=O)CNC(=O)CNC(=O)[C@H](C)NC(=O)[C@H](CC(C)C)NC(=O)[C@H](CC(C)C)NC(=O)[C@H](Cc1c[nH]c2ccccc12)NC(=O)[C@H](CC(N)=O)NC(=O)[C@@H](NC(=O)[C@H](Cc1ccccc1)NC(=O)[C@H](CCC(=O)O)NC(=O)C(C)(C)NC(=O)[C@H](C)NC(=O)[C@H](C)NC(=O)[C@H](CCC(N)=O)NC(=O)[C@H](CCCCN)NC(=O)[C@H](CC(=O)O)NC(=O)[C@H](CC(C)C)NC(=O)[C@H](Cc1ccc(O)cc1)NC(=O)[C@@H](NC(=O)[C@H](CO)NC(=O)[C@H](Cc1ccc(O)cc1)NC(=O)[C@H](CC(=O)O)NC(=O)[C@H](CO)NC(=O)[C@@H](NC(=O)[C@H](Cc1ccccc1)NC(=O)[C@@H](NC(=O)CNC(=O)[C@H](CCC(=O)O)NC(=O)CSCC(=O)NCCN1C(=O)CSC1=O)[C@@H](C)O)[C@@H](C)O)[C@@H](C)CC)C(C)C)C(N)=O)C(=O)O | Glucagon-like peptide 1 receptor (GLP1R, Homo sapiens, UniProt P43220) | cAMP, agonist |  |  |  | Emax | 100% |
| CC[C@H](C)[C@H](NC(=O)[C@H](C)NC(=O)[C@H](CC(N)=O)NC(=O)[C@H](CCCCN)NC(=O)[C@H](Cc1ccccc1)NC(=O)[C@H](CC(C)C)NC(=O)[C@@H](NC(=O)[C@@H](NC(=O)[C@H](CC(C)C)NC(=O)[C@@H]1CCCN1C(=O)[C@@H](NC(=O)[C@H](CCC(N)=O)NC(=O)[C@H](CO)NC(=O)[C@H](CCCCN)NC(=O)[C@H](CCC(=O)O)NC(=O)[C@H](CO)NC(=O)[C@@H](NC(=O)[C@H](CCSC)NC(=O)[C@H](Cc1ccccc1)NC(=O)CNC(=O)CNC(=O)[C@@H](N)Cc1ccc(O)cc1)[C@@H](C)O)[C@@H](C)O)C(C)C)[C@@H](C)O)C(=O)N[C@H](C(=O)N[C@@H](CCCCN)C(=O)N[C@@H](CC(N)=O)C(=O)N[C@@H](C)C(=O)N[C@@H](Cc1ccc(O)cc1)C(=O)N[C@@H](CCCCN)C(=O)N[C@@H](CCCCN)C(=O)NCC(=O)N[C@@H](CCC(=O)O)C(=O)O)[C@@H](C)CC | Mu-type opioid receptor (Oprm1, Mus musculus, UniProt P42866) |  | HEK293 |  |  | Emax | 71 ± 5% |
| CSCC[C@@H]1NC(=O)[C@H](Cc2ccccc2)NC(=O)CNC(=O)[C@H](NC(=O)[C@@H](N)Cc2ccc(O)cc2)CSSC[C@@H](C(=O)N[C@@H](Cc2c[nH]c3ccccc23)C(=O)NCc2cc(C(F)(F)F)cc(C(F)(F)F)c2)NC(=O)[C@@H]2CCCN2C1=O | Delta-type opioid receptor (OPRD1, Homo sapiens, UniProt P41143) | GTPγS binding, agonist, radiometric |  | cell membranes |  | Emax | 11% |
| NS(=O)(=O)c1ccc(NC(=O)c2ccccc2SSc2ccccc2C(=O)Nc2ccc(S(N)(=O)=O)cc2)cc1 | Gag-Pol polyprotein, integrase residues 50-288 (gag-pol, Human immunodeficiency virus type 1 group M subtype B, UniProt P04585, C1427S) | DNA binding, fluorescence anisotropy | integrase ΔN | compound:IN ratio 3:1, with: 10 mM Mn2+, U5 DNA |  | Hill coefficient | 1.3 ± 0.13 |
| CC[C@H](C)[C@H](NC(=O)[C@H](CCCN)NC(=O)[C@H](CC(=O)O)NC(=O)[C@H](CC(C)C)NC(=O)C(C)(CC(C)C)NC(=O)[C@@H](NC(=O)[C@H](CO)NC(=O)[C@H](Cc1ccc(O)cc1)NC(=O)[C@H](CC(=O)O)NC(=O)[C@H](CO)NC(=O)[C@@H](NC(=O)[C@H](Cc1ccccc1)NC(=O)[C@@H](NC(=O)CNC(=O)[C@H](CCC(=O)O)NC(=O)C(C)(C)NC(=O)[C@@H](N)Cc1ccc(O)cc1)[C@@H](C)O)[C@@H](C)CC)[C@@H](C)CC)C(=O)N[C@@H](Cc1c[nH]cn1)C(=O)N[C@@H](CCC(N)=O)C(=O)NC(C)(C)C(=O)N[C@@H](CC(=O)O)C(=O)N[C@@H](Cc1ccccc1)C(=O)N[C@H](C(=O)N[C@@H](CCC(=O)O)C(=O)N[C@@H](Cc1ccc(O)cc1)C(=O)N[C@@H](CCCCNC(=O)COCCOCCNC(=O)COCCOCCNC(=O)CC[C@H](NC(=O)CCCCCCCCCCCCCCCCCCC(=O)O)C(=O)O)C(=O)N[C@@H](CC(C)C)C(=O)N[C@@H](CCC(=O)O)C(=O)NCC(=O)NCC(=O)N1CCC[C@H]1C(=O)N[C@@H](CO)C(=O)N[C@@H](CO)C(=O)NCC(=O)N[C@@H](C)C(=O)N1CCC[C@H]1C(=O)N1CCC[C@H]1C(=O)N1CCC[C@H]1C(=O)N[C@@H](CO)C(N)=O)C(C)C (stereo partly shown) | Gastric inhibitory polypeptide receptor (Mus musculus, UniProt Q0P543) | cAMP accumulation, agonist | HEK293 |  | reference: human GIPR over mouse GIPR | potency ratio | ~600 fold |

Excerpt of the above:
| SMILES | target | assay | test system | setting | scale | quantity | result |
| --- | --- | --- | --- | --- | --- | --- | --- |
| CC[C@H](C)[C@H](NC(=O)[C@H](CCCNC(=N)N)NC(=O)[C@H](CCCNC(=N)N)NC(=O)[C@H](CC(C)C)NC(=O)[C@H](Cc1ccccc1)NC(=O)CNC(=O)CNC(=O)[C@@H](N)Cc1ccc(O)cc1)C(=O)N[C@@H](CCCNC(=N)N)C(=O)N1CCC[C@H]1C(=O)N[C@@H](CCCCN)C(=O)N[C@@H](CC(C)C)C(=O)N[C@@H](CCCCN)C(N)=O | Kappa-type opioid receptor (Oprk1, Rattus norvegicus, UniProt P34975) | agonist |  | concentration not given |  | time to peak hyperpolarisation | ~30 s |
